Assay results pooled from the literature.
Numbered parts are unrelated; each lists some results of a single study.

Sample 1
Target: Histone acetyltransferase KAT6A, winged helix 1, GST fusion (KAT6A, Homo sapiens, UniProt Q92794, residues 1-85)
Technique: protein binding microarray
Form: double-stranded DNA, one strand shown
Medium: in vitro
Concentration: not given
Notes: 8-mer, flanks averaged, mean of 2 arrays, mostly near background
Reference: not given
Direction: higher = stronger binding
Quantity: E-score
Construct (chain): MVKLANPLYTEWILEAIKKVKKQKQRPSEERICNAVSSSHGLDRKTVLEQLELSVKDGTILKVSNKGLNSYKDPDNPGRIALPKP
CAGGTATA: -0.00214
AGGAGAGC: -0.0486
TAGCTGCA: -0.0175
CCCAGTTC: -0.248
ATGACAGA: -0.0884
AAGTCATC: -0.212
ACCCGCAA: 0.212
CACGAACA: -0.034
TCAGAAGA: -0.118
CAGGGTAC: 0.0293

Sample 2
Target: Sal-like protein 4, full length isoform A (SALL4, Homo sapiens, UniProt Q9UJQ4, residues 1-1053)
Sequence of UniProt Q9UJQ4 (whole entry, looked up): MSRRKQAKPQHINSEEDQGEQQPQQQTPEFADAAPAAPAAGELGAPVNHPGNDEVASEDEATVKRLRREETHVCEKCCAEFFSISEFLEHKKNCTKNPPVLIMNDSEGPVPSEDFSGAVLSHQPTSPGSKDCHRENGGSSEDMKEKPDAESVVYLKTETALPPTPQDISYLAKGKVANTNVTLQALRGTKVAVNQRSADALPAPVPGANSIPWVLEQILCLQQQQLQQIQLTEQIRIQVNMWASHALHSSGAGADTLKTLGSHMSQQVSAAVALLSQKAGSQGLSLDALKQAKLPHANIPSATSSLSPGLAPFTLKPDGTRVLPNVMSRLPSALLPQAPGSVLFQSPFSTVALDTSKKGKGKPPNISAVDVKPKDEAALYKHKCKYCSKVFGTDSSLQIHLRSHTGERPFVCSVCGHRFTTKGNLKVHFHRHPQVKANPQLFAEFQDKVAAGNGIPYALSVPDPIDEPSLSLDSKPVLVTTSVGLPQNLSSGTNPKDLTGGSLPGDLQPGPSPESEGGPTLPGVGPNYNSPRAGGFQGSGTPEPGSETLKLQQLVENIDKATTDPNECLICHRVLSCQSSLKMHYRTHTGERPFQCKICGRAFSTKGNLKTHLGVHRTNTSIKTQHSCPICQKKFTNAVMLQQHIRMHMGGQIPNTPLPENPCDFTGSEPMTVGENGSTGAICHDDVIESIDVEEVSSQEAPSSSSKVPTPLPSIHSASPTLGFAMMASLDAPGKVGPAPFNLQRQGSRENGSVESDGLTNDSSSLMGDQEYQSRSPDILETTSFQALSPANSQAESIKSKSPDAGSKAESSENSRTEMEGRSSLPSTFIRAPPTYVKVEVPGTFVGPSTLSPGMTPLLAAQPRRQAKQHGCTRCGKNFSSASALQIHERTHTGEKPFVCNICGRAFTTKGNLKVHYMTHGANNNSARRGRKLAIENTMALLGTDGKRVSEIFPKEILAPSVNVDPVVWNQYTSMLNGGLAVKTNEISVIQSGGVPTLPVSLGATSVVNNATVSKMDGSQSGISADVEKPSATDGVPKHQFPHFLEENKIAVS
Technique: universal PBM
Form: double-stranded DNA, one strand shown
Medium: in vitro
Concentration: 600 nM
Notes: 8-mer, flanks averaged, mean of replicates
Direction: higher = stronger binding
Quantity: E-score
CTCTCTGC: -0.215
TCAACACA: 0.191
GTCGAGTA: 0.0529
CATCGATG: 0.117
CCTTAAAC: -0.0452
ATGTACAG: 0.0995
CCCCCAGC: -0.35
GCCCGGTA: -0.315
CGCGTCCA: -0.216
AGGCTTGA: -0.0651
TCATGGGA: 0.00834
ACAGGTTG: -0.00808
AGCCCAAT: -0.0472

Sample 3
Target: Transcription factor SOX-2, HMG box (Sox2, Mus musculus, UniProt P48432, residues 41-119)
Sequence of UniProt P48432 (41-119, looked up): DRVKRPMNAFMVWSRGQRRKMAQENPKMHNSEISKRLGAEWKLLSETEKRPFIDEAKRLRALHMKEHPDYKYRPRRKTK
Technique: Spec-seq
Form: double-stranded DNA, one strand shown
Medium: in vitro
Concentration: not given
Notes: whole probe, mean of replicates
Reference: not given
Direction: lower = stronger binding
Quantity: relative binding energy
Constant ends, left off below: GAGTCGTCTCGTCAGCAC … CCGTAGAGCACTCAGGTC
CCCCGTT: 1.06 ln ratio
CATGGAG: -0.0039 ln ratio
GGTTGTT: 0.119 ln ratio
TTACGTT: 0.608 ln ratio
TTCCGTT: 1.08 ln ratio
CATGCAT: -0.00435 ln ratio
CATTTAC: -0.648 ln ratio
TCCCGTT: 1 ln ratio
CCAAGTT: 0.887 ln ratio

Mixed results
PhoQ, residues 284 288 289 292 302 303 SMYGEC — fold induction (PhoP, residues 12 14 15 18 19 LHHYF (Escherichia coli, UniProt P23836); Sort-seq, refers to: YFP reporter; E. coli; PhoQ-PhoP variant library, added: 10 µM Mg2+; reference: high Mg2+ state, higher = stronger signaling): 12.7

Excerpt of the above (sample 2):
CTCTCTGC: -0.215
AGCCCAAT: -0.0472
CATCGATG: 0.117
CCTTAAAC: -0.0452
ATGTACAG: 0.0995
